Results gathered from unrelated publications.
Each line is one published result; not all experiments were run side by side. Several values in a cell are separate wells, animals, samples, runs or records. ± gives the spread as reported.
Nuclear receptor subfamily 2 group C member 2 ligand-binding domain: Nuclear receptor subfamily 2 group C member 2, ligand-binding domain (Homo sapiens, UniProt P49116)
Sequence of UniProt P49116 (whole entry, looked up): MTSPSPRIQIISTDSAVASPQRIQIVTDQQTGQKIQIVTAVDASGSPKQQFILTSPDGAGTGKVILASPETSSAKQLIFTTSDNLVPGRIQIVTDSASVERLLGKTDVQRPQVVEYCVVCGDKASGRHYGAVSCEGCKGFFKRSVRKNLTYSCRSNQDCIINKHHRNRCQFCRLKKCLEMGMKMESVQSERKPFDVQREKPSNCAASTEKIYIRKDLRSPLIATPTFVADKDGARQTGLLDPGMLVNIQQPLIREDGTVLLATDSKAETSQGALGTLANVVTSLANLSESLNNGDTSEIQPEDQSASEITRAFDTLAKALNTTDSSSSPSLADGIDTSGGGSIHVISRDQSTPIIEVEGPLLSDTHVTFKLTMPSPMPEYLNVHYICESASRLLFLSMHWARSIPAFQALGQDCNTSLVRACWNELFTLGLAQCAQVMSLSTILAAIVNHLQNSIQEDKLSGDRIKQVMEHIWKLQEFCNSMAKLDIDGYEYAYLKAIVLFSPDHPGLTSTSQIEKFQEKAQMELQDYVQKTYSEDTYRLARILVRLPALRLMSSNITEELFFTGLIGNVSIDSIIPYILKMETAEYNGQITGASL
Sequence of UniProt P51575 (whole entry, unmodified, looked up): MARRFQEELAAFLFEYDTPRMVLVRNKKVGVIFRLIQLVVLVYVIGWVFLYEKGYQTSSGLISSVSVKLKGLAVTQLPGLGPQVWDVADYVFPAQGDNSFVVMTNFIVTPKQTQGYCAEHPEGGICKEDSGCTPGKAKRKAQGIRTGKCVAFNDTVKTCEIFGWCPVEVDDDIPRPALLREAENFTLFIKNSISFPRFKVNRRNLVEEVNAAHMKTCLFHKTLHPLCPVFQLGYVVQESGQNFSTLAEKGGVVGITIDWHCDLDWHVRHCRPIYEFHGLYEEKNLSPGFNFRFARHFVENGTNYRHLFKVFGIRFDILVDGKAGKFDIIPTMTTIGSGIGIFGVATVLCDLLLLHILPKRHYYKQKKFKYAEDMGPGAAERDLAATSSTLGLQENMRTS
Sequence of UniProt O14980 (whole entry, looked up): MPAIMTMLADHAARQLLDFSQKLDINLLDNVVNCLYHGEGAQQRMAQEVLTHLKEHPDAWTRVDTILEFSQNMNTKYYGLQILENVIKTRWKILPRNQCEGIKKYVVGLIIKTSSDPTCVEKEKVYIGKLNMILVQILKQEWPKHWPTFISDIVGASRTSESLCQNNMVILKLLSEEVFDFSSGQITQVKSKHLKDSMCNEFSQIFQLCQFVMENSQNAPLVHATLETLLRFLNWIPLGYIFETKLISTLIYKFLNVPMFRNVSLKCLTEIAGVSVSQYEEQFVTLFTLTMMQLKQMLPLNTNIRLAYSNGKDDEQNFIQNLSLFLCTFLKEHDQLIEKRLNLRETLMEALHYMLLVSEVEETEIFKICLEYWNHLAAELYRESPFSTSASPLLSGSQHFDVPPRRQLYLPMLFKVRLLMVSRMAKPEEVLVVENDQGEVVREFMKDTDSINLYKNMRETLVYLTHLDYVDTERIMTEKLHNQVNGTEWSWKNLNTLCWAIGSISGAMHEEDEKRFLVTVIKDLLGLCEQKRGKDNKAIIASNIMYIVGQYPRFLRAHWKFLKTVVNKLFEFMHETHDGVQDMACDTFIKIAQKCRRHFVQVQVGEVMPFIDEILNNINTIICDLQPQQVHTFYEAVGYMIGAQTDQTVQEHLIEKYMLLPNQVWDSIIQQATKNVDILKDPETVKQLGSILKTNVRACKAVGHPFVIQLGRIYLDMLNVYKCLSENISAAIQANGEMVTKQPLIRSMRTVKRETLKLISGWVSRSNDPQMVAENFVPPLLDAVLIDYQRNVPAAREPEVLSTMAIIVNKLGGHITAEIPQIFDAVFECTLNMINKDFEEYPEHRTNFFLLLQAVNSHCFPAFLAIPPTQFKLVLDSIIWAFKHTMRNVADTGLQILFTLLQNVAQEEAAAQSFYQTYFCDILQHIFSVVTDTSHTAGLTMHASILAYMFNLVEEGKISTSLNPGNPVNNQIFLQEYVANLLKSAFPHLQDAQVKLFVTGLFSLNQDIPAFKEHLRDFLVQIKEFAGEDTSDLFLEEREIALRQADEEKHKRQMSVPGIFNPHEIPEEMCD
Sequence of UniProt O75925 (whole entry, looked up): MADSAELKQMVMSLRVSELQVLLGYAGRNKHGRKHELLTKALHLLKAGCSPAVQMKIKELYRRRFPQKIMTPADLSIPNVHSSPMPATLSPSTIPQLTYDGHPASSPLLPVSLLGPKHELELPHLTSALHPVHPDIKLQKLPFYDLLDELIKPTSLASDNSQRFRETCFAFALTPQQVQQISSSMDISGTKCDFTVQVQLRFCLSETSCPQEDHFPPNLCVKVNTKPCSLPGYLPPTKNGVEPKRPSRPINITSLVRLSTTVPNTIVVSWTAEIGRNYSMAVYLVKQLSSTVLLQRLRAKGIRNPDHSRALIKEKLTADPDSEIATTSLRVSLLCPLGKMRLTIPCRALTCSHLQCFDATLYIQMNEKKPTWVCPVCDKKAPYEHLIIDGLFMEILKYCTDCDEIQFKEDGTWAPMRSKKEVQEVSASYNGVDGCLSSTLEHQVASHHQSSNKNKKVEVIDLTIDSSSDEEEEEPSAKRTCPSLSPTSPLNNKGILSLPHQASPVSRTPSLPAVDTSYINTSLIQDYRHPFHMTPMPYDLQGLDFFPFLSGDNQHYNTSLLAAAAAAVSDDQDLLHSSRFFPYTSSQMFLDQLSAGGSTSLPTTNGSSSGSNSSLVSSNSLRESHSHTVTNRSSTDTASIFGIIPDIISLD
Sequence of UniProt P13569 (whole entry, unmodified, looked up): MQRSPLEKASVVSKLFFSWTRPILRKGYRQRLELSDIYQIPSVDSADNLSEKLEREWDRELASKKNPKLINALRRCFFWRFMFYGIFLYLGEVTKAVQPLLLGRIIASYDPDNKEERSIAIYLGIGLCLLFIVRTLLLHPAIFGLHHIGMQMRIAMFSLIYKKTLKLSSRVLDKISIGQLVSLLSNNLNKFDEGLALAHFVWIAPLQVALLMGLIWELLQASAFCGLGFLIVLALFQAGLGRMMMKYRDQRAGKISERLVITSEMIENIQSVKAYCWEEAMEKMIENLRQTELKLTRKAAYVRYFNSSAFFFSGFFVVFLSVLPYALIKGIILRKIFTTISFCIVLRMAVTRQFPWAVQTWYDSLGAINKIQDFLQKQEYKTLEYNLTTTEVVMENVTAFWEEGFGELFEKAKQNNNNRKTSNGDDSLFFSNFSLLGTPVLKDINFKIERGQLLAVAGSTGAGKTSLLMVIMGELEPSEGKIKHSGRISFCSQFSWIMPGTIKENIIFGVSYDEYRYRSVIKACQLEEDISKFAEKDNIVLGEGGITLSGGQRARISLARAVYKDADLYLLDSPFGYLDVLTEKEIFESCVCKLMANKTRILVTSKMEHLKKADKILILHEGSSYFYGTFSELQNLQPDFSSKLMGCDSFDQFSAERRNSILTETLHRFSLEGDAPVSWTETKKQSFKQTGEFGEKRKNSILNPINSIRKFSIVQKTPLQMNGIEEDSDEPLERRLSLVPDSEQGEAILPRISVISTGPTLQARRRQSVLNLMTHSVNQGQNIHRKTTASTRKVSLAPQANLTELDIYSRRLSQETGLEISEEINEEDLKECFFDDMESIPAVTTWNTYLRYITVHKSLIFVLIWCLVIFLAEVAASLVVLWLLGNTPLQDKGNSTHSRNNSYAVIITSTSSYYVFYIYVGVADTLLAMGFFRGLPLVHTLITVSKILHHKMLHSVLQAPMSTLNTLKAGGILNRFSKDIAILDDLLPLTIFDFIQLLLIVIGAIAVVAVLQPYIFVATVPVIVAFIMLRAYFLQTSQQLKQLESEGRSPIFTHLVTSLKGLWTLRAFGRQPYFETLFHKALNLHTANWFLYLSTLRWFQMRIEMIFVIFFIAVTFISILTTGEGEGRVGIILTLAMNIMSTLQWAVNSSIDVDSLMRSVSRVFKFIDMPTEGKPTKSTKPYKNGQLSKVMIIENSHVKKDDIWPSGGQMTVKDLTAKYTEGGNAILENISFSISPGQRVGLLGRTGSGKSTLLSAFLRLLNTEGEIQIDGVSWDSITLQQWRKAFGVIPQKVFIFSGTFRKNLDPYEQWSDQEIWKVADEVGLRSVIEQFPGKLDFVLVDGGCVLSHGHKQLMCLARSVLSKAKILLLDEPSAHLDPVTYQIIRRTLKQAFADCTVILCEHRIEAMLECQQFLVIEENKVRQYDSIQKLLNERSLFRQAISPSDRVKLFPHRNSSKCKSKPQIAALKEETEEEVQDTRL
Sequence of UniProt P34903 (whole entry, looked up): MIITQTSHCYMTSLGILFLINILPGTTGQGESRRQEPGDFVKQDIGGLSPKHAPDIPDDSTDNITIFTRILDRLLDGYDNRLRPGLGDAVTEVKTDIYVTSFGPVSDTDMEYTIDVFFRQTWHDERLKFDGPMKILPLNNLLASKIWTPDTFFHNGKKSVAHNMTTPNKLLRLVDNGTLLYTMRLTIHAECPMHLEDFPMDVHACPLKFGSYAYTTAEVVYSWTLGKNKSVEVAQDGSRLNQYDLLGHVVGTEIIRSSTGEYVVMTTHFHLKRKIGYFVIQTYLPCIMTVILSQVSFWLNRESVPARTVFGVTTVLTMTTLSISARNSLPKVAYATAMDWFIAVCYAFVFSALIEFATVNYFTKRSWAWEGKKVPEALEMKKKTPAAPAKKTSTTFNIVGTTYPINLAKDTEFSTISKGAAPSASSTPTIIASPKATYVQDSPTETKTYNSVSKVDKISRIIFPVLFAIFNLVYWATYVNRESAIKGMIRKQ
Sequence of UniProt P63208 (whole entry, looked up): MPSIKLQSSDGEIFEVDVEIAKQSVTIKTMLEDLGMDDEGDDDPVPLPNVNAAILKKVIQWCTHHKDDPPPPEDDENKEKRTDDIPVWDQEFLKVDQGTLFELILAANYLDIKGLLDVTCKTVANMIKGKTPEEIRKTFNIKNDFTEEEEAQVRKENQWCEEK
Sequence of UniProt Q16774 (whole entry, unmodified, looked up): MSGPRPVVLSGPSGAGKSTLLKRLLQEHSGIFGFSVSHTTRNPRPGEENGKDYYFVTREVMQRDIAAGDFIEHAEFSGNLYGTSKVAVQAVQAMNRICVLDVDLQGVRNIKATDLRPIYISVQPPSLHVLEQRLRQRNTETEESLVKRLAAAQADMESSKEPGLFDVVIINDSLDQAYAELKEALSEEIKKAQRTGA

CN(C)CCC(c1ccc(Cl)cc1)c1ccccn1 (stereo not drawn)  koff (Nuclear receptor subfamily 2 group C member 2 ligand-binding domain; SPR imaging; 600 nM): 3.24e-07 s⁻¹
O=C1NC(=O)C2(CCc3ccccc32)N1 (stereo not drawn)  IC50 ratio (Gamma-aminobutyric acid receptor subunit alpha-3/beta-3, with gamma-2 subunit (Homo sapiens, UniProt P28472+P34903); anaesthetic-induced desensitisation; reference: alpha1beta3gamma2 over alpha3beta3gamma2): 200 fold
O=C(/C=C\n1cnc(-c2cc(C(F)(F)F)cc(C(F)(F)F)c2)n1)NNc1cnccn1  cells with nuclear reporter (Exportin-1 (XPO1, Homo sapiens, UniProt O14980); nuclear export, high content imaging; HeLa Kyoto reporter; 0.01 µM, 2 h): 1.49% and 1.59%
Nc1ncnc2c1ncn2[C@@H]1O[C@H](COP(=O)(O)OP(=O)(O)OP(=O)(O)O)[C@@H](O)[C@H]1O  Hill coefficient (ATP-sensitive inward rectifier potassium channel 1 (Rattus norvegicus, UniProt P35560); channel open probability, inhibitor, inside-out patch clamp; pH 7.4, Mg2+-free, 1.6 mM): ~3
Nc1ncnc2c1ncn2[C@@H]1O[C@H](CO[P@](=O)(O)O[P@](=O)(O)O[P@@](=O)(O)S)[C@@H](O)[C@H]1O  ΔH (GUK1 (Homo sapiens, UniProt Q16774); binding, isothermal titration calorimetry; molar ratio 3.053, fitted curve): -0.249 kcal/mol
CNc1ncc2c(/C=C/C(=O)N3CCC(OC)CC3)nn(Cc3cccc(C(F)(F)F)c3)c2n1  remaining activity (Ephrin type-A receptor 4 (EPHA4, Homo sapiens, UniProt P54764); kinase activity, inhibitor; 1 µM; reference: untreated control): 80%
Cc1nnc(NS(=O)(=O)c2ccc(N)cc2)s1  koff (Nuclear receptor subfamily 2 group C member 2 ligand-binding domain; SPR imaging; 600 nM): 4.16e-07 s⁻¹
Clc1cncc(OC[C@@H]2CN(CCN3CCc4ccccc43)CCO2)c1  inhibition (D(1B) dopamine receptor (DRD5, Homo sapiens, UniProt P21918); radioligand binding; concentration not given, together with: [3H]SCH23390): 33.7%
Nc1ncnc2c1ncn2[C@@H]1O[C@H](COP(=O)(O)CP(=O)(O)OP(=O)(O)O)[C@@H](O)[C@H]1O  specific binding (P2X purinoceptor 1 (P2RX1, Homo sapiens, UniProt P51575, K136A); saturation binding; HEK293; 25 nM): 1300 CCPM and 1340 CCPM
COCCC(=O)N1CCC(Oc2ccccc2)C1 (stereo not drawn)  log fold enrichment (S-phase kinase-associated protein 1 (SKP1, Homo sapiens, UniProt P63208); binding, affinity selection mass spectrometry; reference: other proteins in batch): -0.0735
CC[C@@H]1[C@H](F)C(=O)N[C@@H]1COc1nccc2cc(C(N)=O)c(OC)cc12  inhibition (Cyclin-dependent kinase 14 (CDK14, Homo sapiens, UniProt O94921); ATP probe binding, KiNativ profiling, refers to: Lys1 probe site; THP-1 cell lysate; 0.2 mM): -6.5%
Nc1nc2c(ncn2[C@@H]2O[C@@H]3COP(=O)(O)O[C@H]4[C@@H](O)[C@H](n5cnc6c(=O)[nH]c(N)nc65)O[C@@H]4COP(=O)(O)O[C@H]3[C@H]2O)c(=O)[nH]1  ΔS (Cell cycle histidine kinase CckA, DHp-CA domains (Caulobacter vibrioides, UniProt Q9X688); binding, ITC; together with: ADP 5 mM): 23.6 cal/mol/K
CC1(C)CC2(C)OC(=O)NC2(C)c2ccccc21 (stereo not drawn)  fold enrichment (E3 SUMO-protein ligase PIAS1 (PIAS1, Homo sapiens, UniProt O75925); binding, affinity selection mass spectrometry; reference: other proteins in batch): 1.32
O=C1OC(c2ccccc2)=N/C1=C\c1ccccc1O  Km (Pancreatic alpha-amylase (Homo sapiens, UniProt P04746); inhibitor, Lineweaver-Burk; 300 ppm, together with: starch substrate): 973 µM
CC1(C)Cc2c(sc(NC(=O)c3ccn[nH]3)c2C(N)=O)C(C)(C)O1  open probability (Cystic fibrosis transmembrane conductance regulator (CFTR, Homo sapiens, UniProt P13569, F312A); single-channel patch clamp; 20 µM, together with: ATP 2 mM): 0.79 ± 0.03
